Measured values from different studies.
A part holds a random share of what one study measured.

Set 1 — technique: protein binding microarray; molecule type: double-stranded DNA, one strand shown; medium: in vitro; tested at: not given; reference: not given; reading: higher = stronger binding
Target: Histone acetyltransferase KAT6A, both winged helices, GST fusion (KAT6A, Homo sapiens, UniProt Q92794, residues 1-181)
Setting: 8-mer, flanks averaged, mean of 2 arrays, mostly near background
Construct (chain): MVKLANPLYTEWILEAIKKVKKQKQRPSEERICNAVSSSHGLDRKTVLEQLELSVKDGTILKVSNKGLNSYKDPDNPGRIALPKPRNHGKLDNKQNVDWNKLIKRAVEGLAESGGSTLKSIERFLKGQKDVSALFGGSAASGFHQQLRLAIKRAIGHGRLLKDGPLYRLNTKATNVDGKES
With `CGGGGCAA` the E-score was -0.0298.
The E-score of `ATTGGTAA` is reported as 0.00893.
For `ACATCCGA`, the E-score was 0.125.
With `CGTCCCAG` the E-score was -0.15.
`AGCACGGG` gave an E-score of 0.173.
For `TACCTGCA`, the E-score was 0.0504.
`CAGTCCCA` gave an E-score of -0.186.
The E-score of `ACCCACTA` is reported as -0.139.
With `GCTACAGC` the E-score was -0.00555.
For `AGTCACAA`, the E-score was -0.127.
`GTTACCAA` has an E-score of -0.0894.
`AAGATGCG` gave an E-score of -0.0217.
`ACGTCGCC` has an E-score of -0.0132.
The E-score of `ATTTACTG` is reported as -0.153.
With `GGTGGATA` the E-score was -0.084.
With `CACTAAGG` the E-score was -0.0536.
With `AGGCGGAT` the E-score was 0.111.
The E-score of `GTTGGCTA` is reported as 0.0241.
With `AATTTCGT` the E-score was -0.0204.
The E-score of `CGCCGACC` is reported as 0.288.
For `AGCCCTCG`, the E-score was -0.0878.
With `CCGAAGGC` the E-score was -0.00678.
The E-score of `CGGAAACC` is reported as 0.217.
With `GAAGCTAC` the E-score was -0.00121.
`ACGCCCCA` has an E-score of -0.0806.

Set 2 — technique: protein-binding microarray; molecule type: double-stranded DNA, one strand shown; medium: in vitro; tested at: not given; reading: higher = stronger binding
Target: Transcriptional repressor CTCF (CTCF, Homo sapiens, UniProt P49711, residues 1-727, full length assumed)
UniProt P49711, sequence (whole entry, looked up): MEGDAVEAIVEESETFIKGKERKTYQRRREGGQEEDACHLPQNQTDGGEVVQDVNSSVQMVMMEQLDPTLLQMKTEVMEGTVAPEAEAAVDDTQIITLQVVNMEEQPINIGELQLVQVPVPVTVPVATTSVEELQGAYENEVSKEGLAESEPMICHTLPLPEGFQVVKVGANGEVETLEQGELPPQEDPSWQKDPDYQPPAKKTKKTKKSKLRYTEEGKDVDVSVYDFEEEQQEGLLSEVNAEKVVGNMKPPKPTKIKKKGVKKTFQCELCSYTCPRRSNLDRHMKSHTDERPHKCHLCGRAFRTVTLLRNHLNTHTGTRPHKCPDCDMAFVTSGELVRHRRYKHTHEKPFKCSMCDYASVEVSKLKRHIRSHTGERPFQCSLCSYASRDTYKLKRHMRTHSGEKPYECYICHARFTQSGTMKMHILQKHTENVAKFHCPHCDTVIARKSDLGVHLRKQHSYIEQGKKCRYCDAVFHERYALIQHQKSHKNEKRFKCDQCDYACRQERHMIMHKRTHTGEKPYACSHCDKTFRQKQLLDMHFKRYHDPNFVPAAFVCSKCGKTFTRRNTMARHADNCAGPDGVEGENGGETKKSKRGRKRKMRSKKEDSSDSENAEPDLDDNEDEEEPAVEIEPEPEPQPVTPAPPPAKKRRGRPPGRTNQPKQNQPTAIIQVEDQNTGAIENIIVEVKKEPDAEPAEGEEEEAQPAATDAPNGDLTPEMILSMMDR
Setting: k-mer, scored over probes, only values ≥0.25
`CATATAAC` gave an E-score of 0.293.
For `GCGCTTTA`, the E-score was 0.353.
For `CGTACATA`, the E-score was 0.275.
`AAATAATT` has an E-score of 0.306.
The E-score of `ATTAGCGC` is reported as 0.318.
The E-score of `ATATGGTG` is reported as 0.255.
`GATGCGCA` has an E-score of 0.382.
`ATTTACTC` gave an E-score of 0.305.
`AAAAATTA` gave an E-score of 0.34.
`TAACGTTA` gave an E-score of 0.28.
`AGATGTAT` has an E-score of 0.336.
With `GAATTATA` the E-score was 0.324.
`TAGTTAAA` gave an E-score of 0.256.
The E-score of `AAAATGTA` is reported as 0.278.
`AATACGTA` gave an E-score of 0.293.
`ATCGCGCA` has an E-score of 0.252.
With `ATACCATC` the E-score was 0.273.
`GGGAATGA` gave an E-score of 0.25.
`CAAATAAC` has an E-score of 0.327.
`AAATACGA` has an E-score of 0.296.
`ACTATATA` has an E-score of 0.311.
With `AATATTGT` the E-score was 0.281.

Set 3 — technique: protein-binding microarray; molecule type: double-stranded DNA, one strand shown; medium: in vitro; tested at: 250 nM; setting: 60-bp whole probe; added: salmon DNA 0.4 mg/ml; reference: random background probes; reading: higher = stronger binding; shared flanks, not repeated: GCCTAGCAC … GTCTTGATTCGCTTGACGCTGCTG
Target: Interferon regulatory factor 5, full length, phosphomimetic (IRF5, Homo sapiens, UniProt Q13568-2, residues 1-514, K96S/S451D/S453D/S456D/S462D)
`GGCGGTATCGACTTTCGGGACGTGCTA` has a log fluorescence of 6.26 z-score.
`GACGGACTGGACTATCGGGCCGTGCTA` has a log fluorescence of 0.464 z-score.
The log fluorescence of `CTTTCTTTACTTCACTCTCTGTGCTAG` is reported as 1.86 z-score.
`TTAGTTTTCAGTTCCGATTAGTGCTAG` has a log fluorescence of 3.88 z-score.
With `TTAGATTTTAGTCTCGATTAGTGCTAG` the log fluorescence was 1.68 z-score.
`GACGGTTTCGACACTGGGGACGTGCTA` has a log fluorescence of 4.42 z-score.
The log fluorescence of `TTAGGTTTCGACTATCGGCTAGTGCTA` is reported as 8.43 z-score.
With `TTAGATTTCTGACTGGATTAGTGCTAG` the log fluorescence was 0.637 z-score.
The log fluorescence of `TAGACCTAGAAAGAAACCACGTGCTAG` is reported as 0.621 z-score.
`TTAGGTTTCGTGTATCGGTTAGTGCTA` has a log fluorescence of 6.89 z-score.
`TTAGGTTTCGGAACTGGGTTAGTGCTA` has a log fluorescence of 5.93 z-score.
For `TTAGATTTCGGGCTTCGATTAGTGCTA`, the log fluorescence was 3.27 z-score.
`GACGGTCTCCTTTTACTGACGTGCTAG` has a log fluorescence of 0.0369 z-score.
With `TTAGATCTCGGTTTCGGTTAGTGCTAG` the log fluorescence was 8.91 z-score.
The log fluorescence of `GTCGGTCTCGGACTGGGGACGTGCTAG` is reported as -0.353 z-score.
`CTAGGTTTCGACTTTCGGTTAGTGCTA` gave a log fluorescence of 10.3 z-score.
For `TTAGGACTGCTTTCCCTTTAGTGCTAG`, the log fluorescence was 0.807 z-score.
`GACGGTCTCCTTATCCTGCCGTGCTAG` gave a log fluorescence of -0.115 z-score.
With `TTAGATATCGGTATCGGTTAGTGCTAG` the log fluorescence was 9.02 z-score.
With `GACGATTCCAGTTTCGAGATGTGCTAG` the log fluorescence was 6.14 z-score.

Set 4 — technique: RNAcompete; molecule type: RNA; medium: in vitro; tested at: 20 nM; setting: 7-mer, probes averaged, single round; reference: mean of 7-mers; reading: higher = stronger binding
Target: PABPC1L2, full length, GST fusion (mouse, UniProt A0ABA7IW68)
Construct (chain): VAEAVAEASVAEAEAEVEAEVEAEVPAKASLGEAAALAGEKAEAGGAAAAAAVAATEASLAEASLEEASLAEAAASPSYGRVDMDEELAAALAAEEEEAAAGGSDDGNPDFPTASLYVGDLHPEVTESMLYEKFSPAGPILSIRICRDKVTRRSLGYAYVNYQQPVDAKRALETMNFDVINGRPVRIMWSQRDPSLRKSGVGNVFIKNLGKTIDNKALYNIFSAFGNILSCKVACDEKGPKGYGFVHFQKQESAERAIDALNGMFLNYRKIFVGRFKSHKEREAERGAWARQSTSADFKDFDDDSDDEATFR
For `AAUAGCU`, the 7-mer Z-score was -0.0355.
`AGUCAUC` has a 7-mer Z-score of -0.378.
The 7-mer Z-score of `CUAAUAG` is reported as -0.315.
The 7-mer Z-score of `CCUUUAC` is reported as -0.079.
The 7-mer Z-score of `ACGGUAC` is reported as 0.0334.
For `AAAGCCC`, the 7-mer Z-score was 0.361.
The 7-mer Z-score of `CCAGAUC` is reported as -0.144.
`UUAUAUC` gave a 7-mer Z-score of -0.217.
For `GCGGUGC`, the 7-mer Z-score was 0.075.
For `GCCAAAA`, the 7-mer Z-score was 3.55.
With `AAUAAGA` the 7-mer Z-score was 0.63.
For `UUGCAUU`, the 7-mer Z-score was -0.253.
The 7-mer Z-score of `UACAGAG` is reported as 0.137.
With `AGGCGCU` the 7-mer Z-score was -0.0138.
`ACGUCGG` has a 7-mer Z-score of -0.0754.
With `GGGACAC` the 7-mer Z-score was 0.341.
`CUUAUUA` gave a 7-mer Z-score of -0.244.
For `GAUAUGU`, the 7-mer Z-score was -0.249.
For `AACCUCG`, the 7-mer Z-score was -0.15.
The 7-mer Z-score of `GUGGGGU` is reported as 0.037.
With `CACUCCG` the 7-mer Z-score was -0.291.
The 7-mer Z-score of `GUUCAGU` is reported as -0.246.
The 7-mer Z-score of `ACCCCAU` is reported as -0.251.

Set 5 — technique: RNA Bind-n-Seq; molecule type: RNA; medium: in vitro; tested at: 365 nM; reference: no-protein control; reading: higher = stronger binding
Target: RNA binding protein fox-1 homolog 2, RRM domain, GST-SBP tag (RBFOX2, Homo sapiens, UniProt O43251-10, residues 100-194)
Setting: natural RNA segment, single round, ends assumed
Shared flanks, not repeated: GGGAGUUCUACAGUCCGACGAUC … UGGAAUUCUCGGGUGCCAA
Construct (chain): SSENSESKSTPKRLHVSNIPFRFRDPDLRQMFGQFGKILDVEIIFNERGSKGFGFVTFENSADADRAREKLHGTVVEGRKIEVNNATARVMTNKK
`CCUUCACGACCCAGAUCUGUGCUGGCCAAAGUCGCUGCGUUUCUCAUCCCCAGCGAGGGUUUCCUCUCAGUCAUUUGUUUACCAGAAAGGAUGAAACUUGCCUGUUGGGG` — result for “RBNS enrichment (R)”: 0.681.
For `CCUGAAGGGUCUACACCCUCGGCUCACCUAAGUGCCCUGUGCUGGUUGCCAGGCGCAGAGGGGAGGCCAGCCCUGCCCUCAGGACCUGCCUGACCUGCCAGUGAUGCCAA`, “RBNS enrichment (R)” read 0.235.
For `ACAGCCCCAGGAGGGUGUCAACACCAGCAAAUGCUGUAUUUGCAGCAUGUCCAAGAUGACCCUUCUCCCCUACCUCUACCUAGCCACUGGCAGGGAGGGGAGACAGUGGU`, “RBNS enrichment (R)” read 0.42.
Under “RBNS enrichment (R)”, `ACAUUCCAUGGAGAAUGCAUUCAUCAAACGGCCCGAAAGAAGCUACAUUUUGUUGGGAAGCUGGAUAAGUUUUAGGUGCAGGACCCCAAAUGUUCUGAGACCUUUGGGGC` is recorded as 0.788.
`CUCGAUCACCCGUGUAUUCUUUGACCAGUAAAUGACCACACCUCAAUGAUGGUAAAACAGCAUCAUCAGUAAGCUAUCUUAUAUGCCUCAUCCUGUGAGUUUGAGCUUCA` — result for “RBNS enrichment (R)”: 0.311.
For `GACUACCCGUGGGUAAGUCCUGCCAUUCAAGACUGGAGACACCUGGGAAAUAAAAAGAGCAGGGCACUGCUGGUGGGAAGAGGCAUUUUACCUUCCAGUGCAAAUCCUGC`, “RBNS enrichment (R)” read 0.22.
Under “RBNS enrichment (R)”, `GGAUCUCGUUGGGGAAUUGGAUGAAGAAAAGCAGAGCGCCUCUGGUAGGUGACUCUGCAGCCUGCCAGCGCCCGCCCUCUUUCUACACAGCAGAGUGUGCAUGGCAAGGA` is recorded as 1.88.
`CCCACAUAAAGAUAGUGCCCUAAGUUGUAAUCAGAACACUUGAGCAAGGAGUUAAAUGGAGGAGUAAACCUGGGAGUGCAAGAAAGCUCAAGAAACACUCAAGGGGAGGC` — result for “RBNS enrichment (R)”: 0.528.
Under “RBNS enrichment (R)”, `GGAAGUAGCCCUGCACCUGCCAGUGAGCUCGCCAUUCACUGAUUGGAAGAGUGACCUGGCAUCUUGGAAAUCAUUGUGUGUCUUCAGGAGAAUGUGCAGUGUCUUGUAAC` is recorded as 0.314.
For `UUUUCAUCCUGUAUCACAGUGUUUUUAUUGCUCGCCCAGACACCAUGUGCAAUAAGACUGGUGUUCGUUUCCAUCAUGUCUGUAUACUUCUGUCAUCUAGACUGUGCAUC`, “RBNS enrichment (R)” read 1.45.
For `CCAUUUGCUAGUUCUCAUGUGAUAUGCAACGGUCCAAGAUGGUUAUCUGAAUCAGGAUAGAACACCCAUUAGUCAUUUUCCCCCCACAAAGCAGCAUUCUGCCUGAAGCA`, “RBNS enrichment (R)” read 18.9.
For `UUGGGAUCUCUGCUGUGCCCUUCUCGGGCUUCCAGACCAGGUGUAGCAAAUGAAAAAGUGCAGUUAAUUCAAGAACAGGAAUCCCUGUGUCCUUGCUGGGAUUUCCUUUU`, “RBNS enrichment (R)” read 0.498.

Excerpt of the above (set 4):
For `GCGGUGC`, the 7-mer Z-score was 0.075.
For `GCCAAAA`, the 7-mer Z-score was 3.55.
With `AAUAAGA` the 7-mer Z-score was 0.63.
For `UUGCAUU`, the 7-mer Z-score was -0.253.
The 7-mer Z-score of `UACAGAG` is reported as 0.137.
With `AGGCGCU` the 7-mer Z-score was -0.0138.
`ACGUCGG` has a 7-mer Z-score of -0.0754.
With `GGGACAC` the 7-mer Z-score was 0.341.
`CUUAUUA` gave a 7-mer Z-score of -0.244.
For `GAUAUGU`, the 7-mer Z-score was -0.249.
For `AACCUCG`, the 7-mer Z-score was -0.15.
The 7-mer Z-score of `GUGGGGU` is reported as 0.037.
With `CACUCCG` the 7-mer Z-score was -0.291.
The 7-mer Z-score of `GUUCAGU` is reported as -0.246.
